Measured values gathered from unrelated publications.
Parts stem from different laboratories: compare values within a part only.

Study 1
Target: Interferon regulatory factor 5, full length, phosphomimetic (IRF5, Homo sapiens, UniProt Q13568-2, residues 1-514, K96S/S451D/S453D/S456D/S462D)
Method: protein-binding microarray
Molecule type: double-stranded DNA, one strand shown
Medium: in vitro
Concentration: 250 nM
Setting: 60-bp whole probe
With: salmon DNA 0.4 mg/ml
Reference: random background probes
Direction: higher = stronger binding
Constant ends, left off below: GCCTAGCAC … GTCTTGATTCGCTTGACGCTGCTG
| Sequence | log fluorescence |
| --- | --- |
| TTAGATCTCAGTATCGACTAGTGCTAG | 3.27 z-score |
| TCAGCTTTTTTTTTTTTACTGTGCTAG | 0.864 z-score |
| TTAGATTTCGGGACTGTATTAGTGCTA | 2.81 z-score |
| GACGAACTGGGGACTGGGGACGTGCTA | -0.305 z-score |
| GACTGACTGGGACTGGGGACGTGCTAG | -0.317 z-score |
| TCAGGACTGGGTCTCGGTTAGTGCTAG | -0.116 z-score |
| GACGGTTTCGGTATCGGGAGGTGCTAG | 9.83 z-score |
| GACGGACTGGCCACTGGGGACGTGCTA | -0.502 z-score |

Study 2
Target: RNA binding protein fox-1 homolog 2, RRM domain, GST-SBP tag (RBFOX2, Homo sapiens, UniProt O43251-10, residues 100-194)
Method: RNA Bind-n-Seq
Molecule type: RNA
Medium: in vitro
Concentration: 365 nM
Setting: natural RNA segment, single round, ends assumed
Reference: no-protein control
Direction: higher = stronger binding
Constant ends, left off below: GGGAGUUCUACAGUCCGACGAUC … UGGAAUUCUCGGGUGCCAA
Target sequence (chain): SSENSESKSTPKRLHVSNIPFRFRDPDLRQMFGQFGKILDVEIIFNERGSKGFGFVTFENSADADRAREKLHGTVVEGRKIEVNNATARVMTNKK
| Sequence | RBNS enrichment (R) |
| --- | --- |
| AAAGAAACUGCCUACAGACAUCAUCACAGCAGCCUCCUCACUUGGGUACUACCGUGUGGAAGCUGUGCAUAUGGUAUAUUUUAUUUGUCUUUGUAAAGCGUUAUGUUUUG | 0.372 |
| GUUACUCUUUGUUCAGUAAUGCACUUUAUUUUAUUGUCCAAAGAGAGUCAAGCUAAAGCUACCACCUUGGGGUGAGCCCUACAGAAGGUUCAGACCCGGGCAGCUCAGCU | 1.2 |
| CCCACCGCUGAGAGGCUGCAGUGACUUCCCCAAGUACCGUGGUCUGUGCUAAUUUGUUUUCAGAUUAGUCUUCCUGUGGCCUCCAACACUCAGCCAGCCCUCAGAGUGUC | 0.475 |
| UGCCUUGAGCAAGUCUCAUUUUCUUUGUAAGCUGCCUCUUCCGCCAUUUCAUCUGAGGUUGCUGUCUUUUUGGUGGGGAGGGGUUUGGGGAACCCAUCAGGUAUGAGUGA | 1.17 |
| UGCAGCCGAGGGGUAAAGAGCCCUCUGGUUCAUUGCCUGAUCGGCUUUGAGAGAGGGUUUGGAGGGCAAGGGGCUGCAUUCCUCUGAGGGACUUGGCCUGAGGCCUUUCG | 0.372 |
| CACACCUUGCACAGAGCACUGGUGCUCACACUCUAGUGUGAUCCAAUGAUGUCAACACCCCAAGAAGAUCUACCCAACUAUAUCAAGUUCAGAGAUGGCAAUGGAUGAUG | 0.317 |
| GGGUUGUGGCCCGAGGCUGCAGUCAGAGGUAUACUUCCCAUAGUGCUUCACACAGCUCCCCUGCUUCUAAAGGAUAAGGUACUGUAGCCUUGGUCCUGGGGACCACCUGC | 1.71 |
| GAUGCCCCAAGUUGUUUCCGGUUCUUUCUAGCUGUCCUUUUUAAAGUGUGUGCUCUUCCUUCCUUAAAACCUUUAGAUGUCCUGUUACACUAACACAGGUCUUCCCUUCC | 0.551 |
| UGGCCUCUGCCUGGGGCCUCCAGAAGCUGCUCCUUUACCCUCUUGGUCCCAUGGCUGAAGCUGGAGCAGCGGAUUGCUCUGGAGCAGCCAAGGCCGCCAGCGUGUGGAGC | 0.253 |
| UUUUUAAAAAAUCUUUUCCAUCGUGUUAAAAAGAAAAUUAGCUAUUAGGAGAUAUUAAAAGAUUGAUGUCUUAGAAGGACAGGGUUAAAACCUUCUGUAAUAUAUUUAAA | 0.653 |
| UGGCGGCUGCCGGCCUCUGGGGGAGGUGGCAGUUAUGCUGUUACUAGUGAUUUUAGGGCUUUGUUAUUUAACUUAUUUCAAGGGUGCUGUGCUCAGCCCUGCCCAUGGCU | 0.493 |

Other studies, line by line
| Molecule | target | test | test system | conditions | how to read | measurement | value |
| --- | --- | --- | --- | --- | --- | --- | --- |
| MDASRQLMLNEEQ | human cyclin B2 | peptide binding, yeast competitive growth sequencing | peptide, Saccharomyces cerevisiae, cyclin B2-Cln2 fusion | concentration not given | reference: Cln2 fusion control, direction not given | binding enrichment score | 0.0702 |
| PhoQ, residues 284 288 289 292 302 303 QWGLFV | PhoP, residues 12 14 15 18 19 HEGLL (Escherichia coli, UniProt P23836) | Sort-seq, item: YFP reporter | E. coli | PhoQ-PhoP variant library, with: 10 µM Mg2+ | reference: high Mg2+ state, higher = stronger signaling | fold induction | 0.894 |
| KLLPRKLQFFCDP | human cyclin B2 | peptide binding, yeast competitive growth sequencing | peptide, Saccharomyces cerevisiae, cyclin B2-Cln2 fusion | concentration not given | reference: Cln2 fusion control, direction not given | binding enrichment score | 0.205 |

Repeated from above (study 2):
| Sequence | RBNS enrichment (R) |
| --- | --- |
| UGGCCUCUGCCUGGGGCCUCCAGAAGCUGCUCCUUUACCCUCUUGGUCCCAUGGCUGAAGCUGGAGCAGCGGAUUGCUCUGGAGCAGCCAAGGCCGCCAGCGUGUGGAGC | 0.253 |
| UUUUUAAAAAAUCUUUUCCAUCGUGUUAAAAAGAAAAUUAGCUAUUAGGAGAUAUUAAAAGAUUGAUGUCUUAGAAGGACAGGGUUAAAACCUUCUGUAAUAUAUUUAAA | 0.653 |
